Assay results from different studies.
Parts stem from different laboratories: compare values within a part only. Substitutions count along the parent as printed.

Block 1 — method: protein-binding microarray; form: double-stranded DNA, one strand shown; matrix: in vitro; concentration: not given; direction: higher = stronger binding; endpoint: E-score
Target: Hepatocyte nuclear factor 3-beta, forkhead domain (FOXA2, Homo sapiens, UniProt Q9Y261, residues 142-269)
Setting: k-mer, scored over probes, only values ≥0.25
Target sequence (chain): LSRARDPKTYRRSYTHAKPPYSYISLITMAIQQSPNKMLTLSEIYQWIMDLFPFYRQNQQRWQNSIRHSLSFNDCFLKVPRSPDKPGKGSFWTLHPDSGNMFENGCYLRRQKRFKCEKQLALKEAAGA
ATAGATCA: 0.258
ATTCATAA: 0.277
AAAGTATA: 0.326
ATAATTCA: 0.253
GGTACACA: 0.264
CTATATGC: 0.318
CATGTGTA: 0.356
AATATCAA: 0.261

Block 2 — method: RNA Bind-n-Seq; form: RNA; matrix: in vitro; concentration: 20 nM; setting: 6-mer, flanks averaged, single round; together with: 150 mM LiCl; relative to: input library; direction: higher = stronger binding; endpoint: 6-mer enrichment (R)
Target: TAR DNA-binding protein 43, full length, His tag (TARDBP, Homo sapiens, UniProt Q13148, residues 1-414)
UUGCGG: 1.09
GAGCAG: 1.03
CAGUGA: 0.918
GUAGAC: 1
CAGUGG: 1.08
AAUCAA: 0.816
CCUGAC: 0.91
UUGAAC: 0.927

Block 3 — method: protein binding microarray; form: double-stranded DNA, one strand shown; matrix: in vitro; concentration: not given; relative to: not given; direction: higher = stronger binding; endpoint: E-score
Target: Histone acetyltransferase KAT6A, winged helix 2, GST fusion (KAT6A, Homo sapiens, UniProt Q92794, residues 85-181)
Setting: 8-mer, flanks averaged, mean of 2 arrays, mostly near background
Residues (chain): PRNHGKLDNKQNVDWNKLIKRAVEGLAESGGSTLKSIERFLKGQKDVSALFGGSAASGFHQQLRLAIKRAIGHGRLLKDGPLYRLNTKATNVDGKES
ACGACGCC: -0.0629
ACGGTGTA: -0.142
CAAAGCGG: 0.209
CGCGGATC: 0.0731
GCAGCAAA: 0.0213
CCGGCTGC: 0.227
GAACTCAA: -0.0396
CGCAGATA: 0.0456

Mixed results
Starting sequence: PafA, mature enzyme, eGFP fusion (Elizabethkingia meningoseptica, UniProt Q9KJX5); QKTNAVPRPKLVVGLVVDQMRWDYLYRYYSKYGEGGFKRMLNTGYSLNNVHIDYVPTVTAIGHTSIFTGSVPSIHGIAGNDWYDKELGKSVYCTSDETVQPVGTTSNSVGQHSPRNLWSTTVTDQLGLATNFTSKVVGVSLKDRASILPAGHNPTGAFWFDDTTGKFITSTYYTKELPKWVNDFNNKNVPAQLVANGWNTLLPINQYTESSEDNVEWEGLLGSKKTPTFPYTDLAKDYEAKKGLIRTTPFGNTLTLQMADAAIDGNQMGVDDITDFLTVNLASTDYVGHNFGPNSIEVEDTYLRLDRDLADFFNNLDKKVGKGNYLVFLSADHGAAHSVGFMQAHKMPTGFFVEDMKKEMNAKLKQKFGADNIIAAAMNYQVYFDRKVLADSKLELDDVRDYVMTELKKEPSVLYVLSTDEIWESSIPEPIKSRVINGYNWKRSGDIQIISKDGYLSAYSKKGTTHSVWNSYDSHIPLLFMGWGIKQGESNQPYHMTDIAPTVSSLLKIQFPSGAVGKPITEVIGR
D473G
oxyanion analog dissociation constant (tungstate, free oxyanion; microfluidic competitive inhibition; in vitro, cell-free expressed; not given, derived from inhibition constants, unchanged parent 2230 nM; lower = stronger binding): 1.04 µM

A few entries again (block 1):
CTATATGC: 0.318
ATTCATAA: 0.277
AATATCAA: 0.261
AAAGTATA: 0.326
